{"data": "Measured values collected from several papers", "note": "Parts stem from different laboratories: compare values within a part only. Changes are numbered by the printed parent chain."}
{"data": "Series 1", "target": "Ras GTPase-activating protein-binding protein 1, RRM domain (G3BP1, Homo sapiens, UniProt Q13283)", "technique": "RNA Bind-n-Seq", "molecule type": "RNA", "sample": "in vitro", "tested at": "1 µM", "setting": "whole 134-nt RNA, ends assumed", "with": "150 mM KCl", "reference": "input library", "reading": "higher = stronger binding", "constant ends, left off below": "GGGAGUUCUACAGUCCGACGAUC … UGGAAUUCUCGGGUGUCAAGG", "chain of UniProt Q13283 (whole entry, looked up)": "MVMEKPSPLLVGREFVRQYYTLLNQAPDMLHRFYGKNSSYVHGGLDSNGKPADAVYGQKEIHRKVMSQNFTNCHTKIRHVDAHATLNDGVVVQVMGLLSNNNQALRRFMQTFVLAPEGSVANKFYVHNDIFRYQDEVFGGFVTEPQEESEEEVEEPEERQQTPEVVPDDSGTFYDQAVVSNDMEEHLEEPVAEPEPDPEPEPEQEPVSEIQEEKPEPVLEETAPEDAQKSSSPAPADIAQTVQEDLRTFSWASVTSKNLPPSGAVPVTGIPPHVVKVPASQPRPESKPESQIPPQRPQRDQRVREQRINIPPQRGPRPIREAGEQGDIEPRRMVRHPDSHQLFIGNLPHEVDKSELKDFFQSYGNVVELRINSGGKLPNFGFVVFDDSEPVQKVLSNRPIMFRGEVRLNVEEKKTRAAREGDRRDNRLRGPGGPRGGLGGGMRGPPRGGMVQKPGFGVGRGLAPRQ"}
{"Strand": "UCCUGUGCUACACAUCGUAUGUACCGAAUCGGGAAAAAAAGGGUUUUUGGGUUUUUGGGAAAGUAUUAUGUUACGCCGUUCGGAUCUGCA", "log2 enrichment": -0.0631}
{"Strand": "UGGCCCUGGUGGCAUGCGGGGAGGAAGAGGUGGCCUCAUGGAUCGUGGUGGUCCCGGUGGAAUGUUCAGAGGUGGCCGUGGUGGUGACAG", "log2 enrichment": 1.7}
{"Strand": "UCAAGUCCUGUGCUACACAUCGUAUGUACCGAAUCGGGGUUUGGUUUGGGUUUGGAAAGUAUUAUGUUACGCCGUUCGGAUCUGCACUUC", "log2 enrichment": -0.349}
{"Strand": "UCCUGUGCUACACAUCGUAUGUACCGAAUCGGGUUUUUUGGGUUUUUUGGGUUUUUUGGAAAGUAUUAUGUUACGCCGUUCGGAUCUGCA", "log2 enrichment": -0.0874}
{"Strand": "AAGUCCUGUGCUACACAUCGUAUGUACCGAAUCAAAUUUUUAAAUUUAAACCCAAAAAAGUAUUAUGUUACGCCGUUCGGAUCUGCACUU", "log2 enrichment": -0.874}
{"Strand": "CCUCAAGUCCUGUGCUACACAUCGUAUGUACCGAAUCGGAAAGGUUUGGUGGAAAGUAUUAUGUUACGCCGUUCGGAUCUGCACUUCCAG", "log2 enrichment": -0.293}
{"Strand": "ACCAUGCAGGUGGGCAUCUUUGGGAAGUGGGGCAAGGGGGGGAUAGGGAGGGGGGUAACAAAUUGGGAACAGGUGGUCCCAGGUCGUUUC", "log2 enrichment": -0.459}
{"Strand": "CAAGUCCUGUGCUACACAUCGUAUGUACCGAAUCGGUUUUUUUGGUUUGGAAAGGAAAGUAUUAUGUUACGCCGUUCGGAUCUGCACUUC", "log2 enrichment": -0.368}
{"Strand": "UCAAGUCCUGUGCUACACAUCGUAUGUACCGAAUCGGGGUUGGGGUUGGGUUGGAAAGUAUUAUGUUACGCCGUUCGGAUCUGCACUUCC", "log2 enrichment": -0.147}
{"data": "Series 2", "target": "CCND2, cyclin fold, Cln2 fusion (human)", "technique": "yeast growth competition, sequencing", "sample": "yeast", "setting": "weak parent motif", "reference": "not given", "reading": "higher = stronger binding", "starting sequence": "PLK5 docking peptide (human); IFRKVGQRLLTQC; partner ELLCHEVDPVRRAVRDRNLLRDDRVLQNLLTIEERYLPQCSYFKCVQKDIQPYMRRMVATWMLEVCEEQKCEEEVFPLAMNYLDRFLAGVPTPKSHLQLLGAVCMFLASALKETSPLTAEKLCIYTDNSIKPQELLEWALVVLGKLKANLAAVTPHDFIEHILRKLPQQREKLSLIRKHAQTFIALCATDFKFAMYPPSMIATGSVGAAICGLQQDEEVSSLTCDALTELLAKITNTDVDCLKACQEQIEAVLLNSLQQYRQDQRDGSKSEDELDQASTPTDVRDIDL"}
{"Variant": "IFRKVGQRLATQC [L10A]", "normalised enrichment score": -0.608}
{"Variant": "IFRKVAQRLLTQC [G6A]", "normalised enrichment score": -0.376}
{"Variant": "IFRKVGQRLLAQC [T11A]", "normalised enrichment score": 0.0666}
{"Variant": "IFRKVGARLLTQC [Q7A]", "normalised enrichment score": -0.198}
{"Variant": "AFRKVGQRLLTQC [I1A]", "normalised enrichment score": -0.202}
{"Variant": "IFRKAGQRLLTQC [V5A]", "normalised enrichment score": -0.0187}
{"data": "Series 3", "target": "ABI1, truncated, D143A, DHFR fusion (Arabidopsis thaliana)", "technique": "DHFR PCA, deep sequencing", "sample": "yeast", "setting": "methotrexate growth selection, single substitutions", "with": "(+)-ABA 200 µM", "reference": "wild-type fitted maximum", "reading": "higher = stronger binding", "starting sequence": "PYL1, truncated, DHFR fusion (Arabidopsis thaliana); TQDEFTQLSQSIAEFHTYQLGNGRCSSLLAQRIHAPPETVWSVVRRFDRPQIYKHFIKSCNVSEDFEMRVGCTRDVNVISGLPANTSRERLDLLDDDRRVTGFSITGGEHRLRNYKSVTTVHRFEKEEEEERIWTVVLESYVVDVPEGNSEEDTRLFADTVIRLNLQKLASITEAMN"}
{"Variant": "F15T", "relative binding score": "62.6%"}
{"Variant": "R45Q", "relative binding score": "32%"}
{"Variant": "R123W", "relative binding score": "81.3%"}
{"Variant": "G21P", "relative binding score": "96.5%"}
{"Variant": "L82T", "relative binding score": "52%"}
{"Variant": "L169I", "relative binding score": "36.1%"}
{"Variant": "T106S", "relative binding score": "82.2%"}
{"Variant": "A30W", "relative binding score": "96.9%"}
{"Variant": "A35Q", "relative binding score": "57.1%"}
{"Variant": "S63I", "relative binding score": "95.6%"}
{"Variant": "K58P", "relative binding score": "12%"}
{"Variant": "H110M", "relative binding score": "27.2%"}
{"Variant": "E67G", "relative binding score": "94.2%"}
{"Variant": "S80R", "relative binding score": "49.1%"}
{"Variant": "R111E", "relative binding score": "34.7%"}
{"Variant": "V78W", "relative binding score": "39.5%"}
{"Variant": "D95I", "relative binding score": "78.8%"}
{"Variant": "E131A", "relative binding score": "108%"}
{"data": "Series 4", "Substance": "PhoQ, residues 284 288 289 292 302 303 AGHLVA", "technique": "Sort-seq", "refers to": "YFP reporter", "sample": "E. coli", "setting": "PhoQ-PhoP variant library", "with": "10 µM Mg2+", "reference": "high Mg2+ state", "reading": "higher = stronger signaling"}
{"target": "PhoP, residues 12 14 15 18 19 TPWTL (Escherichia coli, UniProt P23836)", "fold induction": 0.646}
{"target": "PhoP, residues 12 14 15 18 19 NFFVT (Escherichia coli, UniProt P23836)", "fold induction": 16.5}
{"target": "PhoP, residues 12 14 15 18 19 LHHYF (Escherichia coli, UniProt P23836)", "fold induction": 5.37}
{"data": "Series 5", "target": "JUNB, bZIP domain (human)", "technique": "DHFR protein complementation", "sample": "yeast", "setting": "single substitutions, most at no-binding floor", "reference": "wild-type JUN-FOS pair", "reading": "higher = stronger binding", "starting sequence": "JUN, bZIP domain (human); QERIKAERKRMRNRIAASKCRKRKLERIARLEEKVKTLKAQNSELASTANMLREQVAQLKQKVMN; partner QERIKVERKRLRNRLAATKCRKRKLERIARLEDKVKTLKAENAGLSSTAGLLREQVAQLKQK"}
{"Variant": "I28L", "binding fitness [natural log]": -1.29}
{"Variant": "K39S", "binding fitness [natural log]": -1.16}
{"Variant": "S43F", "binding fitness [natural log]": -1.14}
{"Variant": "T37M", "binding fitness [natural log]": -0.776}
{"Variant": "S47Q", "binding fitness [natural log]": -0.945}
{"Variant": "L38W", "binding fitness [natural log]": -1.5}
{"Variant": "K34H", "binding fitness [natural log]": -1.2}
{"Variant": "M51L", "binding fitness [natural log]": -1.04}
{"Variant": "A49L", "binding fitness [natural log]": -1.08}
{"Variant": "T37Q", "binding fitness [natural log]": -0.757}
{"Variant": "E33T", "binding fitness [natural log]": -1.34}
{"Variant": "Q55A", "binding fitness [natural log]": -1.41}
{"Variant": "V35M", "binding fitness [natural log]": -1.55}
{"Variant": "V35W", "binding fitness [natural log]": -1.38}
{"Variant": "V56F", "binding fitness [natural log]": -1.28}
{"Variant": "E54S", "binding fitness [natural log]": -1.33}
{"Variant": "N42H", "binding fitness [natural log]": -1.2}
{"Variant": "L38F", "binding fitness [natural log]": -1.49}
{"data": "Series 6", "target": "Histone acetyltransferase KAT6A, both winged helices, GST fusion (KAT6A, Homo sapiens, UniProt Q92794, residues 1-181)", "technique": "protein binding microarray", "molecule type": "double-stranded DNA, one strand shown", "sample": "in vitro", "tested at": "not given", "setting": "8-mer, flanks averaged, mean of 2 arrays, mostly near background", "reference": "not given", "reading": "higher = stronger binding", "Residues (chain)": "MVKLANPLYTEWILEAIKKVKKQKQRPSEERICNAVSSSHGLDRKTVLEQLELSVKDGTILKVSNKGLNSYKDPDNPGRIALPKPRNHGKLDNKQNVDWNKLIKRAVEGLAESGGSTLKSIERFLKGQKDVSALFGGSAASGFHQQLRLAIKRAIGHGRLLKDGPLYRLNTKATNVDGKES"}
{"Strand": "CTGATATA", "E-score": -0.104}
{"Strand": "ACGGAACT", "E-score": 0.23}
{"Strand": "AGGAGAAA", "E-score": -0.269}
{"Strand": "AGACCGCC", "E-score": 0.162}
{"Strand": "CCGACAAC", "E-score": 0.136}
{"Strand": "AAAAAAGG", "E-score": -0.0766}
{"Strand": "CTCACGAC", "E-score": 0.00321}
{"Strand": "AATGAAAC", "E-score": -0.156}
{"Strand": "CTCGGGCC", "E-score": 0.0544}
{"Strand": "TTCCAGAA", "E-score": -0.118}
{"Strand": "CTGAGCTA", "E-score": -0.01}
{"Strand": "CCTTTGAA", "E-score": -0.076}
{"Strand": "ACTGAAAG", "E-score": 0.0708}
{"Strand": "GTAGCCCA", "E-score": -0.155}
{"Strand": "GGGAAAAC", "E-score": 0.0533}
{"Strand": "AATATGCT", "E-score": -0.00526}
{"Strand": "CGGGTTAG", "E-score": 0.188}
{"Strand": "ATCTCAAA", "E-score": -0.0116}
{"Strand": "AGCTTATG", "E-score": -0.121}
{"Strand": "GAATGGAA", "E-score": -0.0662}
{"Strand": "ACTATACC", "E-score": -0.136}
{"Strand": "ACCTCCCA", "E-score": -0.0689}
{"Strand": "GTCTTCAA", "E-score": -0.232}
{"Strand": "ACGCTTTC", "E-score": 0.135}
{"Strand": "AGCAGCAT", "E-score": -0.0747}
